# Assay results pooled from the literature.
# Each line is one published result; not all experiments were run side by side. Numbers after ± are the reported error.
# rep main protease: Replicase polyprotein 1ab, main protease (rep, Severe acute respiratory syndrome coronavirus 2, UniProt P0DTD1)
# plsY3: Glycerol-3-phosphate acyltransferase 3 (plsY3, Bacillus anthracis, UniProt Q81Y92)
# UniProt Q81Y92, sequence (whole entry, looked up): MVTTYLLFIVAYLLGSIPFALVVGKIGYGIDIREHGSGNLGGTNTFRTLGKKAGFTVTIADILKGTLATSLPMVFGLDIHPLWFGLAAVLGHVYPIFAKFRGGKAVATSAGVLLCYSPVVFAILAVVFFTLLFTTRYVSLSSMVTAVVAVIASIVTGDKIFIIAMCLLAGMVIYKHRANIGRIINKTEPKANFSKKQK
# UniProt Q9BYF1, sequence (whole entry, looked up): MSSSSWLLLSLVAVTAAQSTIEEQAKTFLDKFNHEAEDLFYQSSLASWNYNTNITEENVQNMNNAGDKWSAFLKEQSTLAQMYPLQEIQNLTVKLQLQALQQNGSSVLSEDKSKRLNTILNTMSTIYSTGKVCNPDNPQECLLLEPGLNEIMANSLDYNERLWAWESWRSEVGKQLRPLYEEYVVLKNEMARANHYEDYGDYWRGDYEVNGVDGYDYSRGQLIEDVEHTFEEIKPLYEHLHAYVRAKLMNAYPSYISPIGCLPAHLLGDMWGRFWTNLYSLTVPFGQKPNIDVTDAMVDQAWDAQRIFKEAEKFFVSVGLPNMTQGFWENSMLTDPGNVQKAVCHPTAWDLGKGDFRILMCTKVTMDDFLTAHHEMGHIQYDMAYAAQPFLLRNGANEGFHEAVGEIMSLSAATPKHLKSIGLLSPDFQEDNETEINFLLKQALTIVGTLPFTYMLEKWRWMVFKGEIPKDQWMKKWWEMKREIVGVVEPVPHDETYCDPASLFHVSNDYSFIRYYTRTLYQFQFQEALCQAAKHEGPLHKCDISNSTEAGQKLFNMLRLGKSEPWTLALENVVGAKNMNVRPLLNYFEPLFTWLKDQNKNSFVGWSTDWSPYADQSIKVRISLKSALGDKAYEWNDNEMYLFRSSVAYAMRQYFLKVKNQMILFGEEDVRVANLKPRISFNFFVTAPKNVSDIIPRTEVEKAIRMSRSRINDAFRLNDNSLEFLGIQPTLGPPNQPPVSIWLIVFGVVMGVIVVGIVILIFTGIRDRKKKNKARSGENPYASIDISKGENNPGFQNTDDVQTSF
# UniProt P0A8T7, sequence (whole entry, looked up): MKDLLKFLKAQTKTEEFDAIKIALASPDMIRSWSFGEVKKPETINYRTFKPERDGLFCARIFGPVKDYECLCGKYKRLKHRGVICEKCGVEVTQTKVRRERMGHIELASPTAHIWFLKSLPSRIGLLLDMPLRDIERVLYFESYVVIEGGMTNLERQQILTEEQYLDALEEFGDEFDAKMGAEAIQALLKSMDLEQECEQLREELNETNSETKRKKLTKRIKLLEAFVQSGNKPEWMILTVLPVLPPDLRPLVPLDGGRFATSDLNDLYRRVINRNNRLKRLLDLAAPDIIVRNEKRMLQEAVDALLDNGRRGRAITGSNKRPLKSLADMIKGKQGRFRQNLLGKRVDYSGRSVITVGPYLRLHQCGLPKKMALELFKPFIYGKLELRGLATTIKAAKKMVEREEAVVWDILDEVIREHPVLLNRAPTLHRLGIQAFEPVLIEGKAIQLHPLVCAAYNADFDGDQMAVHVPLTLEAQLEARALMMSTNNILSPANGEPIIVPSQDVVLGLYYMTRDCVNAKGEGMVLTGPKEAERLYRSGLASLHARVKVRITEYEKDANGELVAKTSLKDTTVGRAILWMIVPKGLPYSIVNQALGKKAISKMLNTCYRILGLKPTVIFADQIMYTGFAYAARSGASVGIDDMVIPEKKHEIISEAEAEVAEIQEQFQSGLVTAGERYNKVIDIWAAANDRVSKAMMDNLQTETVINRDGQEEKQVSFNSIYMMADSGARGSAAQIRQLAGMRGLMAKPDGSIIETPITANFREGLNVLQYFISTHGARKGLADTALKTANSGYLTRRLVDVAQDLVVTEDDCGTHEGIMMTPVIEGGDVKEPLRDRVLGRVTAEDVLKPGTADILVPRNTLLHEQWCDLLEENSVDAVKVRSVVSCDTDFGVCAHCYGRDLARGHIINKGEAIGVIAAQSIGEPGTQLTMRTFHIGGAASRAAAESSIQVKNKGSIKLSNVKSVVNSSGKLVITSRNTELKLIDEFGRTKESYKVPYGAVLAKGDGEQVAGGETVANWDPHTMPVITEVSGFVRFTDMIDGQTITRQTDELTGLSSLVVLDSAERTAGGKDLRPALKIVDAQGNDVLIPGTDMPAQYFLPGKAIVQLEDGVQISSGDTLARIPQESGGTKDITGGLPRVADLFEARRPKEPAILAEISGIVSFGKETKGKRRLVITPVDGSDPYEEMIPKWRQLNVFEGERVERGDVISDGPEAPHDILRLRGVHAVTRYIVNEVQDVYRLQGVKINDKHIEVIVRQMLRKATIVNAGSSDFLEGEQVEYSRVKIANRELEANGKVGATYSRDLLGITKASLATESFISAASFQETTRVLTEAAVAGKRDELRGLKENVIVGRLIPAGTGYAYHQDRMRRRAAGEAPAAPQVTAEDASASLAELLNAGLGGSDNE
# UniProt P0A8V2, sequence (whole entry, looked up): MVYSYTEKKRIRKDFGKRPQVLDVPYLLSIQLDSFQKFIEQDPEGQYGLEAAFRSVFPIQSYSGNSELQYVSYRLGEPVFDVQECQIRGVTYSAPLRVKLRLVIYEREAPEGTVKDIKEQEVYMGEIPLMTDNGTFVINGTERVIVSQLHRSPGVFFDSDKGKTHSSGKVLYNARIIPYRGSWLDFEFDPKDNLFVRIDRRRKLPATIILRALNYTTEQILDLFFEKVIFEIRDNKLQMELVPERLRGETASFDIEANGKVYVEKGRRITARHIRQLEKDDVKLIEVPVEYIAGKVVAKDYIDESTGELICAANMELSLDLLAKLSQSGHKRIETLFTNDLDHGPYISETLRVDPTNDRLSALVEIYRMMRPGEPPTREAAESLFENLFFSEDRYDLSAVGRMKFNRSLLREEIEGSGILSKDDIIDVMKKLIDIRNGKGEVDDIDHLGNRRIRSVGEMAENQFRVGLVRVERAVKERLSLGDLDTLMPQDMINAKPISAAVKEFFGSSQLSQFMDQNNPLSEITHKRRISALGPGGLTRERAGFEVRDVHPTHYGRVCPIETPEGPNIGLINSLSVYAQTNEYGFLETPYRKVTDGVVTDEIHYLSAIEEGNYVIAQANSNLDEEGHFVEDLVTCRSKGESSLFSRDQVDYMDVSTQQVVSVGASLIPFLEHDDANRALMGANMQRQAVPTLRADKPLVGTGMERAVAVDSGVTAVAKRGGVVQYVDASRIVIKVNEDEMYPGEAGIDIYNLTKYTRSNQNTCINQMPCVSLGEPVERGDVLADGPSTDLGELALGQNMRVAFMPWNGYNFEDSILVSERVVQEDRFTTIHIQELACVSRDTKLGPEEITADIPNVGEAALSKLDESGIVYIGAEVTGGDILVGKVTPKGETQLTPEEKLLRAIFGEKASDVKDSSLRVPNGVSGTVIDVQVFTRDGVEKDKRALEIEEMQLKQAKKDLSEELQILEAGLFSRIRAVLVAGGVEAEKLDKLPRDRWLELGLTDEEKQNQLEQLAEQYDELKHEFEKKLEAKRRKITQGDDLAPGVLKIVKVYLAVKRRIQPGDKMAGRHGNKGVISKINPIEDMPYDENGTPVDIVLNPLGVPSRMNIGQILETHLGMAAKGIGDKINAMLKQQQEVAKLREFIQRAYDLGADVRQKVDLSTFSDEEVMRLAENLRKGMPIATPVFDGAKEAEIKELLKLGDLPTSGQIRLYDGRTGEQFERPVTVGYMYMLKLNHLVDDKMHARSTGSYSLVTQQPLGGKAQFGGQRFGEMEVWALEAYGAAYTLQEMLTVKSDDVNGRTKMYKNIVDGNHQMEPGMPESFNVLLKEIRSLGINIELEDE
Structure (SMILES),tested on,assay,system,setting,scale,endpoint,result
COC(=O)NCCc1c(C(O)c2ccccc2)[nH]c2ccc(OC)cc12 (stereo not drawn),"Angiotensin-converting enzyme 2, with SARS-CoV-2 spike RBD (ACE2, Homo sapiens, UniProt Q9BYF1)","RBD binding, TR-FRET",,"100 µM, with: RBD-d2 5 nM",,inhibition,20 to 30%
CCCc1cc(=O)[nH]c(SCC(=O)Nc2ccc(OC(F)F)cc2)n1,rep main protease,"viral replication, mKate2 reporter",SARS-CoV-2,20 µM,,inhibition,-0.241%
O=C1NC(=O)[C@@H](CC(=O)N2C[C@H](CO)C3(C2)CN(C(=O)c2cc4ccc(O)cc4[nH]2)C3)N1,rep main protease,"enzyme activity, inhibitor",,"5 µM, mean of runs",,inhibition,15.4%
CNC(=O)[C@@H](NC(=O)[C@H](CC(C)C)[C@H](O)C(=O)NO)C(C)(C)C,human fibrinogen,SDS-PAGE,Daboia russelii,"concentration not given, unit not given, with: AP venom",reference: untreated fibrinogen,remaining fibrinogen Bβ chain,0.73
CCCCCCCCCCCC(=O)CP(=O)(O)O,plsY3,inhibitor,,200 µM,,inhibition,28%
Cc1ccc(C(C)(C)C(=O)NC[C@H](NC(=O)c2cccnc2)c2ccc3ccccc3c2)cc1,rep main protease,"enzyme activity, inhibitor",,"5 µM, run 1",,inhibition,10.2%
CNC1(c2ccccc2Cl)CCCCC1=O (racemic),muscarinic acetylcholine receptor,"radioligand binding, antagonist, radioligand displacement",,30 µM,,inhibition,-39%
Cc1ncc(C)n2nc(/C=C/c3nc(N4CCCC4)cc(N4CCOCC4)n3)nc12,"Grin1 (Rattus norvegicus, UniProt P35439)",radioligand binding,NMDA glycine site strychnine-insensitive,10 µM,,inhibition,-11%
CC(C)ON(CC(=O)NO)S(=O)(=O)c1ccc(-c2ccccc2)cc1,rep main protease,"viral replication, mKate2 reporter",SARS-CoV-2,20 µM,,inhibition,-0.585%
O=C(NC[C@@H]1Cc2ccccc2CN1C(=O)[C@@H]1CCCS(=O)(=O)C1)c1cn[nH]c(=O)c1,rep main protease,"enzyme activity, inhibitor",,"5 µM, run 2",,inhibition,10.8%
Nc1ncnc2c1ncn2[C@H]1C[C@H](O)[C@@H](COP(=O)(O)OP(=O)(O)OP(=O)(O)O)O1,"Gag-Pol polyprotein, reverse transcriptase (gag-pol, Human immunodeficiency virus type 1 group M subtype B, UniProt P04585, K653A)",substrate,,"K66A mutant, with: G:A mismatched primer template",,kcat,0.0145 ± 0.003 s⁻¹
Cl.Clc1ccc(Cn2c(CN3CCCC3)nc3ccccc32)cc1,rep main protease,"reporter gene (mKate2), inhibitor",,20 µM,,inhibition,-0.214%
Cn1cnc(Cn2c(=O)[nH]/c(=N\c3cc4cn(C)nc4cc3Cl)n(Cc3cc(F)c(F)cc3F)c2=O)n1,,,"human, normal renal function","oral, 375 mg",,"treatment-related TEAE, Moderate severity",0%
O=C(NC[C@H](NC(=O)c1cncc2ccccc12)c1ccc2ccccc2c1)C1=COCC1,rep main protease,"enzyme activity, inhibitor",,"5 µM, run 2",,inhibition,14.1%
C=C1C(=O)[C@@]23[C@H](O)C[C@@H]4C(C)(C)C(=O)CC[C@@]4(C)[C@@H]2CC[C@@H]1[C@H]3O,rep main protease,"reporter gene (Gaussia luciferase), inhibitor",,20 µM,,inhibition,-6.47%
CC(=O)O[C@@H]1[C@H](N)[C@@H](OP(=O)(O)O)[C@@]2(C(=O)O)CS[C@@](O)(C(N)=O)[C@@H]1O2,"DNA-directed RNA polymerase subunit beta' / DNA-directed RNA polymerase subunit beta (rpoC/rpoB, Escherichia coli, UniProt P0A8T7+P0A8V2)","binding to elongation complex, 6-MI fluorescence titration",wild-type RNAP,riboside RNA 3′-end Guanine,,Kd,180 ± 50 nM
O=C1NCc2c1cccc2C(=O)N[C@H](CNC(=O)c1ccnc2[nH]ncc12)c1ccccc1,rep main protease,enzyme activity,,"5 µM, mean of runs",,inhibition,10.2%
CC[C@H](C)[C@H](NC(=O)[C@H](CC(C)C)NC(=O)[C@H](Cc1c[nH]c2ccccc12)NC(=O)[C@H](CCC(N)=O)NC(=O)[C@@H](NC(=O)[C@H](Cc1ccccc1)NC(=O)[C@H](C)NC(=O)[C@H](CCCCNC(=O)COCCOCCNC(=O)COCCOCCNC(=O)CC[C@H](NC(=O)CCCCCCCCCCCCCCCCCCC(=O)O)C(=O)O)NC(=O)[C@H](CCC(N)=O)NC(=O)[C@H](C)NC(=O)[C@@H](NC(=O)[C@H](CCCCN)NC(=O)[C@H](CC(=O)O)NC(=O)[C@H](CC(C)C)NC(=O)C(C)(C)NC(=O)[C@@H](NC(=O)[C@H](CO)NC(=O)[C@H](Cc1ccc(O)cc1)NC(=O)[C@H](CC(=O)O)NC(=O)[C@H](CO)NC(=O)[C@@H](NC(=O)[C@H](Cc1ccccc1)NC(=O)[C@@H](NC(=O)CNC(=O)[C@H](CCC(=O)O)NC(=O)C(C)(C)NC(=O)[C@@H](N)Cc1ccc(O)cc1)[C@@H](C)O)[C@@H](C)O)[C@@H](C)CC)[C@@H](C)CC)C(C)C)C(=O)N[C@@H](C)C(=O)NCC(=O)NCC(=O)N1CCC[C@H]1C(=O)N[C@@H](CO)C(=O)N[C@@H](CO)C(=O)NCC(=O)N[C@@H](C)C(=O)N1CCC[C@H]1C(=O)N1CCC[C@H]1C(=O)N1CCC[C@H]1C(=O)N[C@@H](CO)C(N)=O,,,"human, control and renal impairment groups, plasma","subcutaneous, 5 mg, range of group medians",,tmax,48 to 60 h
O=C(Nc1cc(C(F)(F)F)ccc1N1CCCCC1)c1ccncc1,rep main protease,"reporter gene (mKate2), inhibitor",,20 µM,,inhibition,1.76%
CN(C(=O)n1cnc(-c2ccc[n+]([O-])c2)c1)C1CCCCC1,"strychnine-sensitive glycine receptor, rat",binding,,"10 µM, with: [3H]strychnine",,inhibition,-4%
CC[C@H](C)[C@H](NC(=O)[C@H](CC(C)C)NC(=O)[C@H](Cc1c[nH]c2ccccc12)NC(=O)[C@H](CCC(N)=O)NC(=O)[C@@H](NC(=O)[C@H](Cc1ccccc1)NC(=O)[C@H](C)NC(=O)[C@H](CCCCNC(=O)COCCOCCNC(=O)COCCOCCNC(=O)CC[C@H](NC(=O)CCCCCCCCCCCCCCCCCCC(=O)O)C(=O)O)NC(=O)[C@H](CCC(N)=O)NC(=O)[C@H](C)NC(=O)[C@@H](NC(=O)[C@H](CCCCN)NC(=O)[C@H](CC(=O)O)NC(=O)[C@H](CC(C)C)NC(=O)C(C)(C)NC(=O)[C@@H](NC(=O)[C@H](CO)NC(=O)[C@H](Cc1ccc(O)cc1)NC(=O)[C@H](CC(=O)O)NC(=O)[C@H](CO)NC(=O)[C@@H](NC(=O)[C@H](Cc1ccccc1)NC(=O)[C@@H](NC(=O)CNC(=O)[C@H](CCC(=O)O)NC(=O)C(C)(C)NC(=O)[C@@H](N)Cc1ccc(O)cc1)[C@@H](C)O)[C@@H](C)O)[C@@H](C)CC)[C@@H](C)CC)C(C)C)C(=O)N[C@@H](C)C(=O)NCC(=O)NCC(=O)N1CCC[C@H]1C(=O)N[C@@H](CO)C(=O)N[C@@H](CO)C(=O)NCC(=O)N[C@@H](C)C(=O)N1CCC[C@H]1C(=O)N1CCC[C@H]1C(=O)N1CCC[C@H]1C(=O)N[C@@H](CO)C(N)=O,,,"healthy subjects, single ascending dose","5.0 mg, postbaseline",,treatment-emergent ADA positive subjects,0%
CCCC(=O)CP(=O)(O)O,plsY3,inhibitor,,200 µM,,inhibition,0%
CCc1c(C(=O)C(N)=O)c2c(OCC(=O)O)cccc2n1Cc1ccccc1,C2C12,,,"10 µM, with: GA venom",reference: venom alone,viability difference,17%
Nc1ncnc2c([C@@H]3N[C@H](CO)[C@@H](O)[C@H]3O)c[nH]c12,Zaire ebolavirus,"viral replication, inhibitor",human Macrophage,6.3 µM,,inhibition,0%

# Repeated from above:
Structure (SMILES),tested on,assay,system,setting,scale,endpoint,result
Cn1cnc(Cn2c(=O)[nH]/c(=N\c3cc4cn(C)nc4cc3Cl)n(Cc3cc(F)c(F)cc3F)c2=O)n1,,,"human, normal renal function","oral, 375 mg",,"treatment-related TEAE, Moderate severity",0%
O=C(NC[C@H](NC(=O)c1cncc2ccccc12)c1ccc2ccccc2c1)C1=COCC1,rep main protease,"enzyme activity, inhibitor",,"5 µM, run 2",,inhibition,14.1%
C=C1C(=O)[C@@]23[C@H](O)C[C@@H]4C(C)(C)C(=O)CC[C@@]4(C)[C@@H]2CC[C@@H]1[C@H]3O,rep main protease,"reporter gene (Gaussia luciferase), inhibitor",,20 µM,,inhibition,-6.47%
